Measurements collected from several papers.
Parts stem from different laboratories: compare values within a part only.

Block 1
Target: Interferon regulatory factor 3, full length, phosphomimetic (IRF3, Homo sapiens, UniProt Q14653, residues 1-427, S386D/S396D/S398D/S402D/T404D/S405D)
Chain of UniProt Q14653 (whole entry, unmodified, looked up): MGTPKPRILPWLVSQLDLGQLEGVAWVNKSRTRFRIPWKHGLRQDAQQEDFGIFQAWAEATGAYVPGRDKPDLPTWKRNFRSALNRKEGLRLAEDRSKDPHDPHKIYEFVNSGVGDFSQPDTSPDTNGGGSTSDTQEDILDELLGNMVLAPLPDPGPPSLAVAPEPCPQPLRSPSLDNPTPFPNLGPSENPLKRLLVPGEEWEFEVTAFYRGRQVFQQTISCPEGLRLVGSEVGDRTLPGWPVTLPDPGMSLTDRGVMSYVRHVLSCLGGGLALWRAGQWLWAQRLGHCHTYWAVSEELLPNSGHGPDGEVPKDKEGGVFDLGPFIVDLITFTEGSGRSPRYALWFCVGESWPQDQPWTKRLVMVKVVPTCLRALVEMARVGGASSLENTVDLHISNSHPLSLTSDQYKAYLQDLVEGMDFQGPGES
Method: protein-binding microarray
Form: double-stranded DNA, one strand shown
Sample: in vitro
Tested at: 2540 nM top
Setting: 60-bp whole probe
Together with: salmon DNA 0.4 mg/ml
Baseline: random background probes
Reading: higher = stronger binding
All sequences stand within: GCCTAGCAC … GTCTTGATTCGCTTGACGCTGCTG
Oligonucleotide | fitted relative affinity [z-score]
TTAGGTCCCGGTATCGGTTAGTGCTAG | 1.69
TTAGGTATTGGTATCGGTTAGTGCTAG | 2.56
TCAAAACTCGTATGTGACACTGTGCTA | -0.231
GACGGTATGGGGACTGGGGACGTGCTA | -0.398
GACTGACTGGGTCTCGGGACGTGCTAG | -0.749
TCACATACTGATTTCCAACTGTGCTAG | 1.26
CATCATTGCCTATTTTTCACCGTGCTA | 0.514
GACGGTCTCCTTAACCTGACGTGCTAG | 1.09
GACGATTTCGGGACTCGAGACGTGCTA | 1.69
GACGGGATCCTTTTCCTGACGTGCTAG | 5.37
GACGGTATCGGTATCGGGTCGTGCTAG | 5.08
TTAGGTTTCCTTATCCTTGAGTGCTAG | 8.02

Block 2
Target: UBE2B UBC core domain (UniProt P63146)
Chain of UniProt P63146 (whole entry, looked up): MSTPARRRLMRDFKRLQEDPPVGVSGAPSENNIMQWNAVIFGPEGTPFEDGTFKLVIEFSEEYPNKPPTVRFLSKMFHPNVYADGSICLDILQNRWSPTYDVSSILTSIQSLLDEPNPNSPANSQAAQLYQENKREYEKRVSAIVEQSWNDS
Method: yeast two-hybrid
Sample: yeast
Setting: mostly zero background
Baseline: not given
Reading: higher = stronger interaction
B1: RNF149 RING domain (UniProt Q8NC42); chain EKGIDVDAENCAVCIENFKVKDIIRILPCKHIFHRICIDPWLLDHRTCPMCKLDVIKALGYW
B2: TRIM52 RING domain (UniProt Q96A61); chain PMQTLQEEAVCAICLDYFKDPVSISCGHNFCRGCVTQLWSKEDEEDQNEEEDEWEEEEDEEAV
B3: UBE4A RING domain (UniProt Q14139); chain LQQQEEETYADACDEFLDPIMSTLMCDPVVLPSSRVTVDRSTIARHLLSDQTDPFNRSPLTMDQIRPNTELKEKIQRWLAERKQQKEQLE
B4: RNF4 RING domain (UniProt P78317); chain TGLRPSGTVSCPICMDGYSEIVQNGRLIVSTECGHVFCSQCLRDSLKNANTCPTCRKKINHKRYHP
B5: RNF43 RING domain (UniProt Q68DV7); chain SGSSCSSAPVCAICLEEFSEGQELRVISCLHEFHRNCVDPWLHQHRTCPLCMFNITEGDSFS
B6: RNF32 RING domain (UniProt Q9H0A6); chain SLLQGDSVQPCPICKEEFELRPQVLLSCSHVFHKACLQAFEKFTNKKTCPLCRKNQYQTRVIH
Molecule | lacZ reporter activity
B1 (RNF149 RING domain) | 0
B2 (TRIM52 RING domain) | 0
B3 (UBE4A RING domain) | 0
B4 (RNF4 RING domain) | 0
MANWVFCNRCFQPPHRTSCFSLTNCGHVYCDACLGKGKKNECLICKAPCRTVLLSK (RNF212 RING domain (UniProt Q495C1)) | 0
B5 (RNF43 RING domain) | 0
B6 (RNF32 RING domain) | 0
SYEDKSNDFVCPICFDMIEEAYMTKCGHSFCYKCIHQSLEDNNRCPKCNYVVDNIDHLY (COP1 RING domain (UniProt Q8NHY2)) | 0

Block 3
Target: Ras GTPase-activating protein-binding protein 1, C-terminal RGG region (G3BP1, Homo sapiens, UniProt Q13283)
Chain of UniProt Q13283 (whole entry, looked up): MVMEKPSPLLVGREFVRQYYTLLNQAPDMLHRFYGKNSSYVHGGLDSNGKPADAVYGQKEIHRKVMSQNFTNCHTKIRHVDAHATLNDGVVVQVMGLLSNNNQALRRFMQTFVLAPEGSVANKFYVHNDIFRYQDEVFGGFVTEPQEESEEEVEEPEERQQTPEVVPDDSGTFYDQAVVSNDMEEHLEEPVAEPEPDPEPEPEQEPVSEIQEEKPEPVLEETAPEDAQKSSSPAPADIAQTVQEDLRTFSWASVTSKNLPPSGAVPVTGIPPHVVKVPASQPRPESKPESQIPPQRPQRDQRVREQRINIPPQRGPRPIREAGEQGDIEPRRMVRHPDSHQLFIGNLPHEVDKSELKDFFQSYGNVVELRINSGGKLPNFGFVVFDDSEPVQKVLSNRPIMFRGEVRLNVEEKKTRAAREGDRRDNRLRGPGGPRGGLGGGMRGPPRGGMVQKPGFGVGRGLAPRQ
Method: RNA Bind-n-Seq
Form: RNA
Sample: in vitro
Tested at: 1 µM
Setting: whole 134-nt RNA, ends assumed
Together with: 150 mM KCl
Baseline: input library
Reading: higher = stronger binding
All sequences stand within: GGGAGUUCUACAGUCCGACGAUC … UGGAAUUCUCGGGUGUCAAGG
Oligonucleotide | log2 enrichment
CAAGUCCUGUGCUACACAUCGUAUGUACCGAAUCGGAGGUUUUUGGUUUUUUUGGAAAGUAUUAUGUUACGCCGUUCGGAUCUGCACUUC | -1.76
GCAGGAAGUAAAAACAAAUGGAAAUGCUUCGGAUAGUGGCAGGGGUGGGGGUUGCUAAGGAAAAAAUGGGAUGGGAGUGGGUAAAGAGUU | 2.16
UCAAGUCCUGUGCUACACAUCGUAUGUACCGAAUCGGGCCCGGCCCGGCCCGGGGAAAGUAUUAUGUUACGCCGUUCGGAUCUGCACUUC | -1.77
ACCCUGCAGGUGGGCAUCUUUGGGAAGUGGGGCAAGGGGGGGAUAGGGAGGGGGGUAACACUUUGGGAACAGGUGGUCCCAGGUCGUUUC | -1.05
AAGUCCUGUGCUACACAUCGUAUGUACCGAAUCGGGGAGGGGAGGGGAAAAAGGGGAAAGUAUUAUGUUACGCCGUUCGGAUCUGCACUU | 1.92

Block 4
Target: RING finger protein unkempt homolog, zinc fingers 1-6, GST-SBP tag (UNK, Homo sapiens, UniProt Q9C0B0, residues 30-357)
Method: RNA Bind-n-Seq
Form: RNA
Sample: in vitro
Tested at: not given
Setting: RNA with constant flanks, human and mouse sites, ends assumed
Baseline: input RNA pool
Reading: higher = stronger binding
All sequences stand within: GGGAGUUCUACAGUCCGACGAUC … CAACAGAGGAUUGAGCAUCA
Target sequence (chain): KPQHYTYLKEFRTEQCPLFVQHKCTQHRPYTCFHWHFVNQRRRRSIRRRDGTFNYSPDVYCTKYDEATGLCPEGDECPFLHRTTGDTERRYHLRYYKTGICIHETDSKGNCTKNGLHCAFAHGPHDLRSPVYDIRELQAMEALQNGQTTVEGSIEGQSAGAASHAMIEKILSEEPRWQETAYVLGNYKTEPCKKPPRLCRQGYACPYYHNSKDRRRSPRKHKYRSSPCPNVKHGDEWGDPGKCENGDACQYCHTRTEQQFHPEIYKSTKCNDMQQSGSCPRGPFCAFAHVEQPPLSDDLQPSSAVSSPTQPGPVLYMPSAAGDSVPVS
Oligonucleotide | bound/input enrichment [ratio]
GACAGUUGGUAACUAGGUUCUCUGACCUUUGUUCUACAGGCAGAUCCAGCAAACCCUUUGUAGCACUGUAAAUACUUUGGCUUCGAUAAUGUUCUUAUUACUCUAACCAAUCAUAACUGG | 0.114
CCAAAUGGAUUGCUUCUGACUCCGAGUCCACUGCUCUCCAGCAUACAUUUCUGGAGCAGCCUUAGUCCAGUUGCUCCGCUGAGUCCUGCCAGGCUGCAAGGGCCAAGCACGCUGUUCCAG | 0.0589
AUGGAGAUGUACCAGCCUAGCGCGGUGGUGCUGCAGUGUGGCGCAGACUCCCUGUCUGGGGACAGGCUUGGUUGUUUCAAUCUAACUGUCAAAGGUCAUGCUAAAUGUGUAGAAGUAGUG | 0.592
ACCUAUCGUCGUUAUAGUGACUUCCAUGACUUCCACAUGAGAAUCACUGAACAGUUUGAAAGUCUCUCAAGCAUAUUGAAACUUCCUGGAAAAAAGACUUUUAAUAAUAUGGAUAGAGAU | 0.278
AGAAACGGUGAACUCCCCAGCUAUUUAUAAAUUUCAGAGUCGUCGAAAACGUUGACGUGUUAUAGAUAAGCCUUGUCAUUCUGUAUCAAAAAUCUGUUGUCGUUUUCUAGUAACUUCAAA | 0.401
CUAAUGAAGCCAUCUUCAGGGUUUCUGAGAUUACUGCUAUUCAUAAUUGAUGAUGCUAAUUAUUGAUAUGUUGAGAAAGCCAAAGCUUAAGUAGCCUGCUCAGCUUAACUUCUUGCCAUU | 0.176

Block 5
Target: Histone acetyltransferase KAT6A, winged helix 1, GST fusion (KAT6A, Homo sapiens, UniProt Q92794, residues 1-85)
Method: protein binding microarray
Form: double-stranded DNA, one strand shown
Sample: in vitro
Tested at: not given
Setting: 8-mer, flanks averaged, mean of 2 arrays, mostly near background
Baseline: not given
Reading: higher = stronger binding
Residues (chain): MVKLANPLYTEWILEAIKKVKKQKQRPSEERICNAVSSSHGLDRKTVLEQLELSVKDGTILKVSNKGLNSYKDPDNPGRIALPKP
Oligonucleotide | E-score
TTCTACAA | -0.0147
CGCTGCAC | 0.24
ATCCGCAG | 0.057
ACAAGAAC | -0.0948
AGGTCGCA | 0.125
CTAATCCA | -0.179
GGATTTCA | -0.0937
ATCTCACA | -0.0967
CGGGAATA | 0.277
AAACCTAA | 0.111
CCAAGTTC | -0.151

Block 6
Target: PABPC1L2, full length, GST fusion (mouse, UniProt A0ABA7IW68)
Method: RNAcompete
Form: RNA
Sample: in vitro
Tested at: 20 nM
Setting: 7-mer, probes averaged, single round
Baseline: mean of 7-mers
Reading: higher = stronger binding
Residues (chain): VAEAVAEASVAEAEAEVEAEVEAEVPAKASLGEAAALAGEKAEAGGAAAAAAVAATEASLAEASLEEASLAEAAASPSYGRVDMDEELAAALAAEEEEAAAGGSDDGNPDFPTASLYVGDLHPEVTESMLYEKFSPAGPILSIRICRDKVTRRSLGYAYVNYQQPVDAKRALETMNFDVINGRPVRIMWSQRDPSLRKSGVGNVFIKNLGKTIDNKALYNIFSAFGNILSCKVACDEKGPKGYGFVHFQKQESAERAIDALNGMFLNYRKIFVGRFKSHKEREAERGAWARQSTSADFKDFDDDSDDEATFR
Oligonucleotide | 7-mer Z-score
GGCACCG | 0.202
UAUCGCC | -0.271
AGGAGGU | 0.0968
GUGCAAG | -0.0373
CGAAUAU | -0.206
UUGGACU | -0.182
GUGGGUC | -0.0645
CGAAGAC | -0.0464
UUAAGAC | -0.00652
GGUCUCG | -0.202
GAAACUG | 0.345
AUCGGGA | 0.095
AGGUAGA | 0.0225
GUCAUGA | -0.0554
ACCUAAU | -0.253
CACGAGU | -0.211

Repeated from above (block 6):
Oligonucleotide | 7-mer Z-score
AGGAGGU | 0.0968
GUGCAAG | -0.0373
CGAAUAU | -0.206
